# Published values gathered from unrelated publications.
# Each numbered part is a random draw from the data of one study; scales do not carry over between parts. Substitutions count along the parent as printed.

# Block 1
# Target: Fragile X messenger ribonucleoprotein 1, C-terminal low-complexity region (Fmr1, Mus musculus, UniProt P35922)
# Technique: RNA Bind-n-Seq
# Form: RNA
# Medium: in vitro
# Concentration: 200 nM
# Setting: whole 134-nt RNA, ends assumed
# With: 150 mM LiCl
# Baseline: input library
# Direction: higher = stronger binding
# Library: 7-deaza-guanosine replaces G
# All sequences stand within: GGGAGUUCUACAGUCCGACGAUC … UGGAAUUCUCGGGUGUCAAGG
Oligonucleotide,log2 enrichment
AAGUCCUGUGCUACACAUCGUAUGUACCGAAUCGGGAAAAAAAGGGUUUGGGUGGGAAAGUAUUAUGUUACGCCGUUCGGAUCUGCACUU,-1.87
AAGUCCUGUGCUACACAUCGUAUGUACCGAAUCGGGGAAAGGGAAAGGGAAAGGGGAAAGUAUUAUGUUACGCCGUUCGGAUCUGCACUU,0.313
UUUCCCCUGGAGGGCGCCUCCAUCCUUGGAGGCCUAGUGCCGUCGGAGAGAGAGCGGGAGCCGCGGACAGAGACGCGUGCGCAAUUCGGA,-2.42
CACAGACAACACGCACCCACACAGAGACAGAGGGAAGGGGUUGGGAUGGGGACAGGGUGCACAGCAGGGCGGGGUAGGACCCCAGCCCCU,1.24
GUCCUGUGCUACACAUCGUAUGUACCGAAUCGGGGCCCCCGGGGCCCCCGGGCCCCCGGAAAGUAUUAUGUUACGCCGUUCGGAUCUGCA,-0.631
UCCUGUGCUACACAUCGUAUGUACCGAAUCGGGGCCCCCCGGGCCCCCCGGCCCCCCGGGAAAGUAUUAUGUUACGCCGUUCGGAUCUGC,-0.344
UCCUGUGCUACACAUCGUAUGUACCGAAUCAAACCCCCCCAAACCCAAAUUUUUUUAAAAAAGUAUUAUGUUACGCCGUUCGGAUCUGCA,1.6
ACCAUGCAGGUGGGCAUCUUUGGGAAGUGGGGCAAGGGGGGGAUAGGGAGGGGGGUAACACUUUGGGAACAGGUGGUCCCAGGAAAUUUC,1.21

# Block 2
# Target: ABI1, truncated, D143A, DHFR fusion (Arabidopsis thaliana)
# Technique: DHFR PCA, deep sequencing
# Medium: yeast
# Setting: methotrexate growth selection, single substitutions
# With: (+)-ABA 17 µM
# Baseline: wild-type fitted maximum
# Direction: higher = stronger binding
# Starting sequence: PYL1, truncated, DHFR fusion (Arabidopsis thaliana); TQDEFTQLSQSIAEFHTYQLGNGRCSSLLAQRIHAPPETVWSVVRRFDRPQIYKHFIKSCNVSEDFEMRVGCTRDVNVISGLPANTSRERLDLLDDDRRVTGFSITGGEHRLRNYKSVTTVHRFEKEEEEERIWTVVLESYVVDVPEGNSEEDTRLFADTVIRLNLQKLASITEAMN; partner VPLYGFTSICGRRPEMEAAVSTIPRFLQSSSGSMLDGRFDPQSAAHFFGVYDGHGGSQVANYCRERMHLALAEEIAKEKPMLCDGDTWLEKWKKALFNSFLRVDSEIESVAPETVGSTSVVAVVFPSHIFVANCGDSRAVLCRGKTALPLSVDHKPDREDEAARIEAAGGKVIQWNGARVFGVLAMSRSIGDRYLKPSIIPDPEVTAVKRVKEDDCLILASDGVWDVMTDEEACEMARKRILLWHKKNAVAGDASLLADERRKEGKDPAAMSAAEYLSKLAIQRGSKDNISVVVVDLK
Variant,relative binding score [%]
I105L,-2.55
R46Q,87.2
V70I,80.5
V78W,43.5
D75A,75.7
R49P,-2.69
S87Q,21.6
F15Y,83.5
S59Y,47.9
S59P,8.49
T101N,5.64
R111E,-7.1
T6R,86.4
G71Q,7.6
G107L,-3.24

# Block 3
# Substance: PhoQ, residues 284 288 289 292 302 303 SCCLKL
# Technique: Sort-seq
# Measured: YFP reporter
# Medium: E. coli
# Setting: PhoQ-PhoP variant library
# With: 10 µM Mg2+
# Baseline: high Mg2+ state
# Direction: higher = stronger signaling
target,fold induction
"PhoP, residues 12 14 15 18 19 NFFVT (Escherichia coli, UniProt P23836)",6.54
"PhoP, residues 12 14 15 18 19 TPWTL (Escherichia coli, UniProt P23836)",1.68
"PhoP, residues 12 14 15 18 19 LHHYF (Escherichia coli, UniProt P23836)",1.07
"PhoP, residues 12 14 15 18 19 VGHWL (Escherichia coli, UniProt P23836)",2.56

# Block 4
# Target: Prothrombin, mature alpha-thrombin (F2, Homo sapiens, UniProt P00734)
# Technique: aptamer microarray, sandwich
# Form: DNA with 2'F-ANA
# Medium: in vitro
# Concentration: 200 nM
# Setting: whole 15-mer aptamer, many near background
# With: Cy3 exosite-II aptamer, 400 nM
# Direction: higher = stronger binding
# Oligonucleotide: GGTTGGTGTGGTTGG
Modification,mean fluorescence intensity
2'F-ANA at 1 2 6 7 11 14 15,73.2 a.u.
2'F-ANA at 1 4 5 7 10 11 12,70.9 a.u.
2'F-ANA at 1 2 3 5 6 9 10 12 15,53.2 a.u.
2'F-ANA at 2 3 5 7 8 9 11 12 14 15,65.1 a.u.
2'F-ANA at 2 6 8 10 11 13,95 a.u.
2'F-ANA at 2 4 8 9 11 12 14,115 a.u.
2'F-ANA at 5 8 9 12 13 15,102 a.u.
2'F-ANA at 1 2 4 5 8 11 13,52.4 a.u.
2'F-ANA at 1 3 4 6 7 9 13,178 a.u.
2'F-ANA at 3 5 7 8 12 13,374 a.u.
2'F-ANA at 1 4 5 8 10 12 13,53.5 a.u.
2'F-ANA at 2 3 9 11 12 13 14,450 a.u.
2'F-ANA at 3 6 7 12 15,1330 a.u.
2'F-ANA at 2 3 4 5 6 8 15,99.4 a.u.
2'F-ANA at 1 2 3 5 7 11 14,46.3 a.u.
2'F-ANA at 2 4 5 7 8 9 13,55.3 a.u.
2'F-ANA at 4 5 8 9 12 13,94.1 a.u.
2'F-ANA at 3 6 7 9 10,468 a.u.
2'F-ANA at 2 3 5 6 7 12,229 a.u.
2'F-ANA at 1 4 5 6 9 10 12 13,48.5 a.u.
2'F-ANA at 2 3 4 6 9 12 13,561 a.u.
2'F-ANA at 1 2 3 4 6 7 8 10 11 12 13 14 15,64.1 a.u.

# Excerpt of the above (block 4):
Modification,mean fluorescence intensity
2'F-ANA at 2 4 5 7 8 9 13,55.3 a.u.
2'F-ANA at 4 5 8 9 12 13,94.1 a.u.
2'F-ANA at 3 6 7 9 10,468 a.u.
2'F-ANA at 2 3 5 6 7 12,229 a.u.
